Assay results from different studies.
A part holds a random share of what one study measured. Substitutions count along the parent as printed.

Sample 1 — target: CCND3, cyclin fold, Cln2 fusion (human); method: yeast growth competition, sequencing; matrix: yeast; notes: weak parent motif; reference: not given; direction: higher = stronger binding; measurement: normalised enrichment score
Parent: RB1 docking peptide (human); PKPLKKLRFDIEG
PKPLKKLWFDIEG [R8W]: 0.135
PKPLKKLRFKIEG [D10K]: 0.211
PKPLKKMRFDIEG [L7M]: 0.152
PKPLKILRFDIEG [K6I]: 0.15
PKPLKKLRFDSEG [I11S]: 0.183
PKPLKKLVFDIEG [R8V]: 0.124
PKPLKKPRFDIEG [L7P]: 0.115
PKPLKKLRFDIEK [G13K]: 0.24
PKPFKKLRFDIEG [L4F]: 0.171
PKPLKHLRFDIEG [K6H]: 0.18
PKPLKKLPFDIEG [R8P]: 0.154
PKPHKKLRFDIEG [L4H]: 0.158
PKSLKKLRFDIEG [P3S]: 0.197
PKPLKMLRFDIEG [K6M]: 0.131
PKPLKKLRFDIKG [E12K]: -0.0276
PWPLKKLRFDIEG [K2W]: 0.0735
PKPLIKLRFDIEG [K5I]: 0.141
PKPLKKLRPDIEG [F9P]: 0.0419

Sample 2 — method: RNA Bind-n-Seq; form: RNA; matrix: in vitro; tested at: not given; reference: input RNA pool; direction: higher = stronger binding; measurement: bound/input enrichment
Target: RING finger protein unkempt homolog, zinc fingers 1-6, GST-SBP tag (UNK, Homo sapiens, UniProt Q9C0B0, residues 30-357)
UniProt Q9C0B0, sequence (30-357, looked up): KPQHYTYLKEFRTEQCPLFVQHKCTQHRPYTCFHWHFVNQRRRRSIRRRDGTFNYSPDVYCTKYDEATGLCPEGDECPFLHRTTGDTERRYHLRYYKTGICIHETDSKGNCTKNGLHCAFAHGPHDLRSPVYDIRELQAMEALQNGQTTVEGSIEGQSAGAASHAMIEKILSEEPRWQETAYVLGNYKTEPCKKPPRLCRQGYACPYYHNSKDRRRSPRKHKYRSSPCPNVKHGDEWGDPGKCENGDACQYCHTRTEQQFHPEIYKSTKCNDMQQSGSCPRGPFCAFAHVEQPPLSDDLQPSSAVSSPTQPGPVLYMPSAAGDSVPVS
Notes: RNA with constant flanks, human and mouse sites, ends assumed
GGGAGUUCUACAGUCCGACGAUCGAAACUCCCCAUUGUCACUGAGAACCACCAAAUCUGACUUUUACAUUUGGUCUCAGAAUUUAGGUUCCUGCCCUGUUGGUUUUUUUUUUUUUUUUUUAAACAGUUUUCAAAAGUUCUUAACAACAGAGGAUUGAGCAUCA: 4.83 ratio
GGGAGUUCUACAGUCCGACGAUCUUGCUCAAUAUGCUCCCAGAUCAAGAGUAUAAGGUUGCUUUUACAAAAACAUUUGUUCAGCAUUAUGCUUUUAUUAUGAAAACACUGAAGAAAAGUCACGAAUCAGAUACAAUGUCCAACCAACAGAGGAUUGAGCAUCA: 0.174 ratio
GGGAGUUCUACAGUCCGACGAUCUUUAGUGACUAUGGUAAGCUUUUGUUGAUUUGUUUCAGACUUUUUUCUCCUGUAAAAAAAUAGUACUGAUUAACUUUUUUAAAAGAAAGAUUUUACUGUAAAUAUGGAUUUUUUUUUUUGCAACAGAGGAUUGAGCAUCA: 4.34 ratio
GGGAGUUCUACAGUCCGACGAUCCUAUGUGUAAAAGUGGACAGGACUCCGAAAGGCACACAGGGAGUUGUCACAAAUUUUGAAAUAUUCCGAAUGAGGGAGAAGCAGGUACCUGUUGAUGUUGUUGAGAUGAAAGAAACCAUCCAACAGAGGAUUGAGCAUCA: 0.186 ratio
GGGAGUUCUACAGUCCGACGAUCCCUGGGGAAGUAACAGAAACUGAAGUUAUUGCUUUAGGCUUACCUUUUGGUAAGGUGACCAACAUCCUUAUGCUGAAAGGAAAAAAUCAGGCAUUUUUGGAACUAGCAACCGAGGAAGCACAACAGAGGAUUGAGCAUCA: 0.222 ratio
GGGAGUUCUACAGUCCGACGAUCGAGUCUGACUCUUAACCCUUUUGAGAAUUGCUCUGAAUUUUGUUCUCAGGCAUUAUACAGUUAGUAAUUAAACUUUAAAUGCCAUUACUACUUGUUUUUUCAUAUCCCAAGAAUAAGAACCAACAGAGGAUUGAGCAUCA: 0.228 ratio
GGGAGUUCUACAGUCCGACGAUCACAAAUCACGCAACUGCAACACUAGAAGGCAAUCAGAUUUUUAACAACCGGUUUGGAGGCUUAUUUUUAGCAUCUGGUGUUAAUGUGACAAUGAAAGAUAACAAAAUAAUGAACAAUCAACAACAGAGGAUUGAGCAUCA: 0.241 ratio
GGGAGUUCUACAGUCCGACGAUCGAGAUGAGGGCAAGAGCGAUUAAAGCCCUAAUGAAAGCUGGUGAUAUAAAAAAGCCAGCCUAGGUAUUUAACUUGAUUUUGAAUUUUAGGUAUGUUUGAACAAAGCCACAUCAUUUAAUUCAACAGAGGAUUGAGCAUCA: 1.45 ratio
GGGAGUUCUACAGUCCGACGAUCGUCAUAUUUUUUUAAGAUUAUGUUUUUAUGUUCUUGGGCUAAUGGAGCAACACUGCCCCCUGACACAGUGACCACCCAAGCAGCAAAGCCGCCCUCGGCUCCUUCCUUCUUGCCUUGGGACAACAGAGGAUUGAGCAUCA: 1.13 ratio
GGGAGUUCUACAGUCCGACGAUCUAUGCAGGGGACGGUCCCGGCCCUGUUCGUCCAUUCUGUAAAUAACUUGUAAAUAGUCUUUAGCAUUCCUCUUGUAACAAGAUUAAUUUUUAUGAAAUAAAUUAUAUUUCCUAGUCUAAUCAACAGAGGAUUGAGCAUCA: 12.1 ratio
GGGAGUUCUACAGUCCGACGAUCCCAAGCCCUAAGGCUGAGCCUAUCCAGGAGCCUCCCACCUGUGUCCCCAAGCUCUGCAUUGGGGACUUGGACUUCUCAGACCUAGGGGAGGAUGAAGACCAGGACACACUGAAUGUGGAACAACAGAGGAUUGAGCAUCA: 0.339 ratio

Sample 3 — method: RNA Bind-n-Seq; form: RNA; matrix: in vitro; tested at: 365 nM; reference: no-protein control; direction: higher = stronger binding; measurement: RBNS enrichment (R)
Target: RNA binding protein fox-1 homolog 2, RRM domain, GST-SBP tag (RBFOX2, Homo sapiens, UniProt O43251-10, residues 100-194)
Notes: natural RNA segment, single round, ends assumed
Target sequence (chain): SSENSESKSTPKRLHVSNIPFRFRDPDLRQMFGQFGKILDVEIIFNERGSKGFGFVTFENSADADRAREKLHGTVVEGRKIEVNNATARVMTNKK
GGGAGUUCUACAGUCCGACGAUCAACCAGGAGUGAAUUUCAAAUGAGAUGUAAUCGACUUUAUAUCUUAGUCACGGAGUUGCCAUGGCAUGUAGUAGAAAACCACAGGAAGAAUGGUCAUAUUCACUUUGUGGUGGAAUUCUCGGGUGCCAA: 0.294
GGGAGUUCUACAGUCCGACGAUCGAUGAAAAUCCACAGCACAGACCUCUACCGUGUUUCUCUUCCAUCCCUAAACCACUUCCUUAAAAUGUUUGGAUUUGCAAAGCCAAUUUGGGGCCUGUGGAGCCUGGGGUUGGAAUUCUCGGGUGCCAA: 0.452
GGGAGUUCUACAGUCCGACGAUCCAAACUGAAAUGGAUUUGCACGUUGGGGAGCUGGCGGCGGCGGCUGCUGGGCCUCCGCCUUCUUUUCUACGUGAAAUCAGUGAGGUGAGACUUCCCAGACCCCGGAGGCGUGGAAUUCUCGGGUGCCAA: 0.91
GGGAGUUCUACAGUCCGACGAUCCCUGAUGGUAGGUCGUGGGGCCUGGUGAUUUCAAACAAAGCCAUCGCCUGCGUUCUUUCUCCUUCUGGUGCUACAGCUCUGAGGGCCUUCACCUUUCUGUCUGAAAUACAUGGAAUUCUCGGGUGCCAA: 0.294
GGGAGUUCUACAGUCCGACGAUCGGCCCCAGCGGCCUGGGCGUUGGCUGAGCCGACGCUGGGGCUUCCAGAAGGCCCGGGGGUCUCCGAGGUGCCGGUUAGGAGUUUGAACCCCCCCCACUCUGCAGAGGGAAUGGAAUUCUCGGGUGCCAA: 0.326
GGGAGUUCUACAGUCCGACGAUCAAUUAAUUACCCUCCGUUUCCCACAUCCCCACUCUCUAGGGGAUUAGCUUGUGCGUGUCAAAAGAAGGAACAGCUCGUUCUGCUUCCUGCUGAGUCGGUGAAUUCUUUGCUGGAAUUCUCGGGUGCCAA: 0.456
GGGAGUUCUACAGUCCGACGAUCAGGGAAUAAGCCAUGACGUCAAUAGCAGCCCAGGGCACUUCAGAGUAGAGGGCUUGGGAAGAUCUUUUAAAAAGGCAGUAGGCCCGGUGUGGUGGCUCACGCCUAUAAUCUGGAAUUCUCGGGUGCCAA: 0.726
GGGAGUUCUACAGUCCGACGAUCGAUACUUUGCAGCUCAUCCAAAGAGACAUAACUAAACCCUAAACUCUUUUUUUGUUGUUGUUGUUGUUGUUUUUUUUUUUUAUGAUUAAAAAGUAAAAAUUGUAGUUUAAUGGAAUUCUCGGGUGCCAA: 0.531
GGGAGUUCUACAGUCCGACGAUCACUAUGGACUCUUGUUGUGUGGAAUGGAAGGGGACUAGCCAGCUCUCUGCAUGGCACAUGGUCAAGGAAACUGUCCUUGGCUCAGACAGACCUGGGGUGGUGGGCAUCUGUGGAAUUCUCGGGUGCCAA: 1.61
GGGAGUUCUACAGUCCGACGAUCGGUUUGAUACCAAUAGGGGAAAAUGUAAAAUGUUCAGUCUUUAUGACAACCUGGCAUAAAGGAGUCAAUUCUUAUGAAAGAGACACAAGGGCCUUAUGGCCAGGGUUUCUUGGAAUUCUCGGGUGCCAA: 0.318
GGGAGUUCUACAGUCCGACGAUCUGGAAUGAAUUUUUGUCUUUUGUAUUUUAAUCACUUGAGUGAAUCAACUAUUAGCAAAUUCCAUUUGGUGGCUUAGCAUUGGAAAGAACAGAUAAAGUAGCUGAUGCCUAUGGAAUUCUCGGGUGCCAA: 1.33
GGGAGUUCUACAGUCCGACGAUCGCCUGUUGGUCUCUCAUUGGACGUUUUUGGGUCUCACUCAUGCUUACUGAAACAUUGUGCCAAGAAACUCUGUGGGAUUUGUGUCCCUUAAACCAGACUCACUUUUCUGAUGGAAUUCUCGGGUGCCAA: 0.38

Sample 4 — method: protein binding microarray; form: double-stranded DNA, one strand shown; matrix: in vitro; tested at: not given; reference: not given; direction: higher = stronger binding; measurement: E-score
Target: Histone acetyltransferase KAT6A, winged helix 2, GST fusion (KAT6A, Homo sapiens, UniProt Q92794, residues 85-181)
Notes: 8-mer, flanks averaged, mean of 2 arrays, mostly near background
Residues (chain): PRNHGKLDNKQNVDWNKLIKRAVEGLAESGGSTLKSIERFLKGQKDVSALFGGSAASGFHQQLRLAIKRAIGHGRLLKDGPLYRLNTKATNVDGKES
ATAGCGTA: -0.123
ACCGAATC: -0.0962
TCTAGGCA: -0.0694
ACAAAGGG: -0.0438
AGTAGTCG: -0.0867
CATCAGCC: 0.0738
CGGCTGGC: 0.05
CGCATATC: 0.0947
GTGAGTAA: 0.064
GATGAGAA: -0.053
ATGGGGTC: -0.00475
ACCATTTC: -0.0218
ATCGTGTG: -0.0596
GGGTGTGA: -0.0148
CCCGTAGA: -0.2
ACGGCGTG: -0.0116
CTGGCACA: 0.0361
